{"data": "Results of several laboratories", "note": "Every numbered part comes from another study and shows a few of its results, in no order. Changes are numbered by the printed parent chain."}
{"data": "Study 1", "target": "ABI1, truncated, D143A, DHFR fusion (Arabidopsis thaliana)", "technique": "DHFR PCA, deep sequencing", "medium": "yeast", "setting": "methotrexate growth selection, single substitutions", "together with": "(+)-ABA 0 µM", "baseline": "wild-type fitted maximum", "reading": "higher = stronger binding", "starting sequence": "PYL1, truncated, DHFR fusion (Arabidopsis thaliana); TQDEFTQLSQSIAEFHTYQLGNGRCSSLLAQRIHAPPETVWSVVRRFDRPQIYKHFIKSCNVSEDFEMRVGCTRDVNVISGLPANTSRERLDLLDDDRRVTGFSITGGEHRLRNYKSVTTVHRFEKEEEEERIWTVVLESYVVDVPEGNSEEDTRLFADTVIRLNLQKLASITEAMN; partner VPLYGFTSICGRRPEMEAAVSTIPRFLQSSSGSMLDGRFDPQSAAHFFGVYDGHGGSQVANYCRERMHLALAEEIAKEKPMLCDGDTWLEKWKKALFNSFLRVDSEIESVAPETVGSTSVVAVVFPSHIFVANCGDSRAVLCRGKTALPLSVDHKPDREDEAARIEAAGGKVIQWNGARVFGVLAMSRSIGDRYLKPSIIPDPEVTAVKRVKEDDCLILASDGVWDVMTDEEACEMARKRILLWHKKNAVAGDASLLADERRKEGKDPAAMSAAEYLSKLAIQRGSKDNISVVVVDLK"}
{"Substitution": "A158Q", "relative binding score [%]": 17.8}
{"Substitution": "S9I", "relative binding score [%]": 21.1}
{"Substitution": "V118W", "relative binding score [%]": 2.54}
{"Substitution": "V121C", "relative binding score [%]": -0.589}
{"Substitution": "V62S", "relative binding score [%]": -2.68}
{"Substitution": "E174Y", "relative binding score [%]": -5.44}
{"Substitution": "E14K", "relative binding score [%]": 11.5}
{"Substitution": "I133W", "relative binding score [%]": 12.6}
{"Substitution": "R98G", "relative binding score [%]": 1.9}
{"Substitution": "E151Q", "relative binding score [%]": 24.3}
{"Substitution": "V137H", "relative binding score [%]": 6.78}
{"Substitution": "M176G", "relative binding score [%]": 2.66}
{"Substitution": "L138E", "relative binding score [%]": 8.26}
{"Substitution": "E38P", "relative binding score [%]": 5.85}
{"Substitution": "S11G", "relative binding score [%]": 0.923}
{"Substitution": "L93R", "relative binding score [%]": 1.98}
{"Substitution": "S140V", "relative binding score [%]": 3.42}
{"Substitution": "L93Q", "relative binding score [%]": 0.153}
{"data": "Study 2", "target": "Interferon regulatory factor 7, full length, phosphomimetic (IRF7, Homo sapiens, UniProt Q92985, residues 1-503, S471D/S472D/S475D/S476D/S477D/S483D/S484D/S487D)", "technique": "protein-binding microarray", "form": "double-stranded DNA, one strand shown", "medium": "in vitro", "concentration": "2200 nM top", "setting": "60-bp whole probe", "together with": "salmon DNA 0.4 mg/ml", "baseline": "random background probes", "reading": "higher = stronger binding", "shared flanks, not repeated": "GCCTAGCAC … GTCTTGATTCGCTTGACGCTGCTG", "Target sequence (chain)": "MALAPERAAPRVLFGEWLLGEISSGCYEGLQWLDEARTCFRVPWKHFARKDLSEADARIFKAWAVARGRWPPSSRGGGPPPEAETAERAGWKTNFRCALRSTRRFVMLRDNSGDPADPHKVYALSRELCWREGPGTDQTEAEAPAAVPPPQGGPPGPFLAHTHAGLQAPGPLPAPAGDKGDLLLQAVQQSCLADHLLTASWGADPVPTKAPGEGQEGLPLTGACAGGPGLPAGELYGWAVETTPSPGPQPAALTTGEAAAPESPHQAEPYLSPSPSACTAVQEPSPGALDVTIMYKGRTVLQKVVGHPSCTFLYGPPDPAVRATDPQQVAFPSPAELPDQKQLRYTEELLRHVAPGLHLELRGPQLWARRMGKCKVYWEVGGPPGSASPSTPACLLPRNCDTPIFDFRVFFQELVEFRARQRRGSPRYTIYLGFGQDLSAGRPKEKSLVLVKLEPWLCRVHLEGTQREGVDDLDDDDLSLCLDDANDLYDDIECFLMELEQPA"}
{"Oligonucleotide": "TCATTTTTGCTTTCTTTACTGTGCTAG", "fitted relative affinity [z-score]": 4.98}
{"Oligonucleotide": "TACATTTTCCAAATGCCCCTGTGCTAG", "fitted relative affinity [z-score]": 2.66}
{"Oligonucleotide": "GACGGTATCCTACTGATGACGTGCTAG", "fitted relative affinity [z-score]": 0.414}
{"Oligonucleotide": "GCTTTTATCCCTGACAGAAGGTGCTAG", "fitted relative affinity [z-score]": 0.832}
{"Oligonucleotide": "GACGGTTTAGACACTGGGGACGTGCTA", "fitted relative affinity [z-score]": 0.139}
{"Oligonucleotide": "TTAGGTTTCGACTTTCAGTTAGTGCTA", "fitted relative affinity [z-score]": 7.06}
{"Oligonucleotide": "TTAGGTTTCGACTATCGGATAGTGCTA", "fitted relative affinity [z-score]": 3.16}
{"Oligonucleotide": "GACGAACTGGGGTTTCGAGGCGTGCTA", "fitted relative affinity [z-score]": 0.893}
{"Oligonucleotide": "TTAGGTGTCGGGTTTCGGTTAGTGCTA", "fitted relative affinity [z-score]": 3.13}
{"Oligonucleotide": "TTTGGTATCCTTCTCCTTTAGTGCTAG", "fitted relative affinity [z-score]": 2.02}
{"Oligonucleotide": "TACGGTTTCGGTATCGGGACGTGCTAG", "fitted relative affinity [z-score]": 8.21}
{"Oligonucleotide": "AAAATTTTAACCCTTATTCTGTGCTAG", "fitted relative affinity [z-score]": -0.326}
{"Oligonucleotide": "GACGGTCTCGACACTGGGGACGTGCTA", "fitted relative affinity [z-score]": -0.431}
{"Oligonucleotide": "CAGCTTTTATCCCTGACAGAGTGCTAG", "fitted relative affinity [z-score]": 0.735}
{"Oligonucleotide": "GTAGATTTCAGTATCGATTAGTGCTAG", "fitted relative affinity [z-score]": 0.954}
{"Oligonucleotide": "CCCCCTTTTATATTGTAAGCGTGCTAG", "fitted relative affinity [z-score]": 0.504}
{"Oligonucleotide": "CTGATTTTGCTTTCATTTATGTGCTAG", "fitted relative affinity [z-score]": 3.44}
{"Oligonucleotide": "GGAAATTCCAAGTTCATGGGGTGCTAG", "fitted relative affinity [z-score]": -0.00742}
{"Oligonucleotide": "TTACATATGTTTTTCATTTTGTGCTAG", "fitted relative affinity [z-score]": 3.12}
{"Oligonucleotide": "TTAGGACTGGGCCTGGGTTAGTGCTAG", "fitted relative affinity [z-score]": -1.05}
{"Oligonucleotide": "TTTACTTTCTGAATGCCCTCGTGCTAG", "fitted relative affinity [z-score]": 5.91}
{"Oligonucleotide": "GACGAACTGGGGTTTAGAGACGTGCTA", "fitted relative affinity [z-score]": 0.0518}
{"Oligonucleotide": "GACGGACTGGGGACTGGGGACGTGCTA", "fitted relative affinity [z-score]": -0.822}
{"Oligonucleotide": "TCACTTCTGCATTACAGACTGTGCTAG", "fitted relative affinity [z-score]": 2.19}
{"data": "Study 3", "target": "CCNA1, cyclin fold, Cln2 fusion (human)", "technique": "yeast growth competition, sequencing", "medium": "yeast", "setting": "weak parent motif", "baseline": "not given", "reading": "higher = stronger binding", "starting sequence": "RBL1 docking peptide (human); GSAKRRLFGEDPP; partner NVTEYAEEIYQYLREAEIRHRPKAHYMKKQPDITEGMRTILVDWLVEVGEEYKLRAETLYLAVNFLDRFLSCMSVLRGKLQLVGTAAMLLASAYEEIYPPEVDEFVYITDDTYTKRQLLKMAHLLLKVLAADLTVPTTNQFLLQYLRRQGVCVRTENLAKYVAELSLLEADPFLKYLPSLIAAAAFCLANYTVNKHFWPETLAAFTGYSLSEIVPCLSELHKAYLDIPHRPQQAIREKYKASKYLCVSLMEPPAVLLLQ"}
{"Substitution": "G1T", "normalised enrichment score": 0.848}
{"Substitution": "E10H", "normalised enrichment score": 0.428}
{"Substitution": "A3S", "normalised enrichment score": 0.217}
{"Substitution": "D11I", "normalised enrichment score": 0.639}
{"Substitution": "L7Q", "normalised enrichment score": 0.62}
{"Substitution": "A3G", "normalised enrichment score": -0.0555}
{"Substitution": "D11L", "normalised enrichment score": 0.732}
{"Substitution": "S2N", "normalised enrichment score": 0.433}
{"Substitution": "R6Y", "normalised enrichment score": 0.695}
{"Substitution": "S2R", "normalised enrichment score": 0.652}
{"Substitution": "R6Q", "normalised enrichment score": 0.162}
{"Substitution": "D11M", "normalised enrichment score": 0.351}
{"Substitution": "F8K", "normalised enrichment score": 0.594}
{"Substitution": "P12N", "normalised enrichment score": 0.241}
{"Substitution": "F8S", "normalised enrichment score": 0.141}
{"Substitution": "D11V", "normalised enrichment score": 0.181}
{"Substitution": "S2V", "normalised enrichment score": 0.545}
{"Substitution": "G1A", "normalised enrichment score": 0.384}
{"Substitution": "A3M", "normalised enrichment score": 0.143}
{"Substitution": "D11K", "normalised enrichment score": 0.584}
{"Substitution": "G9V", "normalised enrichment score": 0.979}
{"Substitution": "P12G", "normalised enrichment score": 0.376}
{"Substitution": "G1N", "normalised enrichment score": 0.0786}
{"Substitution": "F8Y", "normalised enrichment score": 0.39}
{"Substitution": "F8N", "normalised enrichment score": 0.375}
{"data": "Further values, each from its own experiment"}
{"Molecule": "PhoQ, residues 284 288 289 292 302 303 SMYGEC", "target": "PhoP, residues 12 14 15 18 19 SFCSL (Escherichia coli, UniProt P23836)", "assay": "Sort-seq, item: YFP reporter", "system": "E. coli", "setting": "PhoQ-PhoP variant library, together with: 10 µM Mg2+", "scale": "baseline: high Mg2+ state, higher = stronger signaling", "endpoint": "fold induction", "value": 12.7}
